Measurements of several laboratories.
± marks the error that the study gave.
prp N63Q: Ribosomal processing cysteine protease Prp (prp, Staphylococcus aureus, UniProt Q2FXS9, N63Q)
F2: Prothrombin (F2, Homo sapiens, UniProt P00734)
RPS6KA2: Ribosomal protein S6 kinase alpha-2 (RPS6KA2, Homo sapiens, UniProt Q15349)
ADORA2A: Adenosine receptor A2a (ADORA2A, Homo sapiens, UniProt P29274)

SMILES	target	assay	test system	setting	inhibition
CC(=O)NC[C@H]1[C@H](O)[C@H](O)[C@@H]2[C@H](O)C[C@@H](CO)N21	human placental β-N-acetylglucosaminidase	–	–	0.00644 µM, run 1, with: p-nitrophenyl GlcNAc	61.6%
C[C@H](NC(=O)CCC(F)(F)F)C(=O)N[C@@H]1C(=O)N(CCO)c2ncccc2-c2ccccc21	prp N63Q	enzyme activity, inhibitor	–	10 µM, prp 21.4 nM, with: FITC peptide substrate 0.5 µM	-21 ± 6%
Cc1cc(C)nc(NC(=N)NCCc2c[nH]c3ccc(F)cc23)n1	Beta-lactamase (ampC, Escherichia coli K-12, UniProt P00811)	enzyme activity, inhibitor	–	up to 10 µM, colloidal aggregation counterscreen, with: 0.1% DMSO	no inhibition
O=C(N1CCC2(CC1)C[C@H](CN1CCCCS1(=O)=O)CCO2)C1(c2ccccc2)CCCC1	ATP-dependent RNA helicase DDX1 (Homo sapiens, UniProt Q92499)	ATPase activity	–	50 µM	0%
c1ccc(C(NCCNC(c2ccccc2)c2ccccc2)c2ccccc2)cc1	phosphodiesterase 4, human	enzyme activity	–	10 µM, Eurofins selectivity panel	-12%
O=c1cc(-c2ccccc2)oc2cc(O)c(O)c(O)c12	CES1 (Homo sapiens, UniProt P23141)	oseltamivir hydrolysis	recombinant human enzyme	10 µmol/L, 60 min, with: oseltamivir 10 µmol/L	no inhibition
CNC(=O)[C@H](Cc1ccccc1)NC(=O)[C@H](CC(C)C)[C@H](CSc1cccs1)C(=O)NO	prp N63Q	enzyme activity, inhibitor	–	10 µM, prp 21.4 nM, with: FITC peptide substrate 0.5 µM	29.9 ± 5.6%
O=C(Nc1ccc2c(c1)B(O)OC2)c1cccc(OCC2CCCCC2)c1	F2	enzyme activity	–	50 µM, with: substrate 50 µM	≤ 10%
CC(C)C[C@H](NC(=O)[C@H](CCc1ccccc1)NC(=O)CN1CCOCC1)C(=O)N[C@@H](Cc1ccccc1)C(=O)N[C@@H](CC(C)C)C(=O)[C@@]1(C)CO1	prp N63Q	enzyme activity, inhibitor	–	10 µM, prp 21.4 nM, with: FITC peptide substrate 0.5 µM	21.6 ± 4.1%
O=S(=O)(Nc1ccc2c(c1)B(O)OC2)c1ccc(Cl)cc1	F2	enzyme activity	–	50 µM, with: substrate 50 µM	≤ 10%
O=c1ccc2ccc(OCCCCN3CCN(c4cccc5sccc45)CC3)cc2[nH]1	prp N63Q	enzyme activity, inhibitor	–	10 µM, prp 21.4 nM, with: FITC peptide substrate 0.5 µM	0.5 ± 4.8%
CC(C)N1CCC[C@H]1CNC(=O)c1cn(C2CCCC2)c(=O)c2c1c1ccccc1n2C	GABAA receptor muscimol site, rat brain	radioligand binding	–	10 µM	-1%
CN(C(=O)n1cnc(-c2ccc[n+]([O-])c2)c1)C1CCCCC1	DMPK (Homo sapiens, UniProt Q09013)	kinase activity, inhibitor	–	50 µM, with: Axltide substrate	19%
O=[N+]([O-])c1ccc2c(c1)B(O)OC2	F2	enzyme activity	–	50 µM, with: substrate 50 µM	≤ 10%
CCCC(C)NC(=O)c1ccc(Cl)c(Cl)c1 (centres unmarked)	prp N63Q	enzyme activity	–	10 µM, 21.4 nM enzyme dimer, with: 0.5 µM FITC-labelled peptide substrate	17.8 ± 29.9%
COc1cccc(COc2cccc(C(=O)Nc3ccc4c(c3)B(O)OC4)c2)c1	F2	enzyme activity	–	50 µM, with: substrate 50 µM	≤ 10%
Cn1cc(-c2cccc(N3CCc4c(sc5c4CC(C)(C)C5)C3=O)c2CO)cc(Nc2ccncn2)c1=O	RPS6KA2	kinase activity, inhibitor, SelectScreen kinase profiling	–	1 µM, with: ATP at apparent Km	3%
CCCCCn1c2ccccc2c2cc(C(=O)NCC3CCN(CC(=O)NC(C)(C)C)CC3)ccc21	CACNA1G (Homo sapiens, UniProt O43497)	calcium current, blocker, whole-cell voltage clamp	–	3 µM	44.5 ± 7%

SMILES	target	assay	test system	setting	inhibition
CNCCCC12CCC(c3ccccc31)c1ccccc12	Potassium/sodium hyperpolarization-activated cyclic nucleotide-gated channel 1 (Homo sapiens, UniProt O60741)	ion current	–	3 µM	-2.49%
COc1ccc2c(O[C@@H]3C[C@H]4C(=O)N[C@]5(C(=O)NS(=O)(=O)C6CC6)C[C@H]5/C=C\CCCCN(C)C(=O)[C@@H]4C3)cc(-c3nc(C(C)C)cs3)nc2c1C	prp N63Q	enzyme activity, inhibitor	–	10 µM, prp 21.4 nM, with: FITC peptide substrate 0.5 µM	21.3 ± 14.9%
COCc1c(-c2cc3cc(C)cc(OC)c3s2)c2c(N)ncnn2c1CN1CCNC(=O)C1	alpha1A adrenoceptor	radioligand binding	–	10 µM	11%
CN1CCN(c2cc(-c3ccncc3)c(-c3ccc4ccccc4c3)nn2)CC1	ADORA2A	antagonist, FLIPR	–	10 µM	-10.9%
COc1ccc(N2C(=O)N(c3c(C)cccc3Cl)Cc3cnc(Nc4ccc(C5CCN(C)CC5)cc4OC)nc32)nc1	FGFR2 (Homo sapiens, UniProt P21802)	kinase activity	–	0.5 µM	88%
O=C(Nc1cnccc1Cl)N1CCN(Cc2ccc3c(c2)OC(F)(F)O3)CC1	AMPA receptor, rat	binding	–	10 µM, with: [3H]AMPA	11%
O=C(Nc1ccccc1)Nc1ccc2c(c1)B(O)OC2	F2	enzyme activity	–	50 µM, with: substrate 50 µM	≤ 10%
O=C(Nc1cccnn1)N1CCC(=Cc2cccc(Oc3ccc(C(F)(F)F)cn3)c2)CC1	Faah (Rattus norvegicus, UniProt P97612)	probe labelling, inhibitor, competitive ABPP with azido-FP probe	rat brain soluble fraction	0.01 µM	57.1%
COc1cc(Nc2ncc(F)c(Nc3ccc4c(n3)NC(=O)C(C)(C)O4)n2)cc(OC)c1OC	RPS6KA2	KINOMEscan	–	10 µM, RSK3(Kin.Dom.2-C-terminal)	0%
CCC[C@H](NC(=O)[C@@H]1[C@H]2CCC[C@H]2CN1C(=O)[C@@H](NC(=O)[C@@H](NC(=O)c1cnccn1)C1CCCCC1)C(C)(C)C)C(=O)C(=O)NC1CC1	prp N63Q	enzyme activity, inhibitor	–	10 µM, prp 21.4 nM, with: FITC peptide substrate 0.5 µM	41.8 ± 16.2%
CC(C)(C)OC(=O)N1CCN(C(=O)n2cc(-c3ccc(OC(F)(F)F)cc3)nn2)C(Cc2ccccc2)C1 (centres unmarked)	Abhd6 (Mus musculus, UniProt Q8R2Y0)	enzyme activity	N2a membrane proteome	30 nM	54%
O=C(Nc1ccc2c(c1)B(O)OC2)c1ccc(Oc2ccccc2)cc1	F2	enzyme activity	–	50 µM, with: substrate 50 µM	≤ 10%
O=c1ccc2ccccc2o1	Oprk1 (Rattus norvegicus, UniProt P34975)	radioligand binding, agonist	–	10 µM	4.43%
COc1cccc(CO)c1	ADORA2A	–	–	30 µM	8 ± 2%
Cc1ncc(C)n2nc(/C=C/c3nc(N4CCCC4)cc(N4CCOCC4)n3)nc12	GABA transporter	radioligand binding	–	10 µM	-3%
CNC(=O)[C@H](Cc1c[nH]c2ccccc12)NC(=O)[C@@H](CC(=O)NO)CC(C)C	prp N63Q	enzyme activity, inhibitor	–	10 µM, prp 21.4 nM, with: FITC peptide substrate 0.5 µM	24.3 ± 12.2%
CN(CCN1CCC(OC(=O)Nc2ccccc2-c2ccccc2)CC1)C(=O)c1ccc(CN2CCC(C(N)=O)CC2)cc1	ADORA2A	radioligand binding	–	1 µM, with: [3H]CGS21680 6.0 nM	-5%

A few entries again:
SMILES	target	assay	test system	setting	inhibition
CN(C(=O)n1cnc(-c2ccc[n+]([O-])c2)c1)C1CCCCC1	DMPK (Homo sapiens, UniProt Q09013)	kinase activity, inhibitor	–	50 µM, with: Axltide substrate	19%
O=[N+]([O-])c1ccc2c(c1)B(O)OC2	F2	enzyme activity	–	50 µM, with: substrate 50 µM	≤ 10%
CCCC(C)NC(=O)c1ccc(Cl)c(Cl)c1 (centres unmarked)	prp N63Q	enzyme activity	–	10 µM, 21.4 nM enzyme dimer, with: 0.5 µM FITC-labelled peptide substrate	17.8 ± 29.9%
COc1cccc(COc2cccc(C(=O)Nc3ccc4c(c3)B(O)OC4)c2)c1	F2	enzyme activity	–	50 µM, with: substrate 50 µM	≤ 10%
